Measured values pooled from the literature.
Protocols differ between the studies behind these lines. Numbers after ± are the reported error.

| Substance | test | system | setting | how to read | measurement | value |
| --- | --- | --- | --- | --- | --- | --- |
| Cc1c(Cl)cccc1Nc1ccccc1C(=O)O | shake-flask | polysorbate 80 | 37 °C | – | thermodynamic solubility | 57.3 ± 7.05 mg/g |
| CSc1cc(C)nc(SC)c1NC(=O)CN1CCN(CCSc2nc3ccccc3[nH]2)CC1 | – | mouse Crl:CD1 (ICR) female, cerebrum | intranasal repeated, 32.4 µg in 0.01 N HCl, 60 min | – | concentration | 0.8 ng/g |
| COc1cc(C)c(/C=C/C(C)=C/C=C/C(C)=C/C(=O)O)c(C)c1C | shake-flask | soybean oil | 37 °C | – | thermodynamic solubility | 0.12 ± 0.01 mg/g |
| CC(CC(=O)O)C(=O)O (stereo not shown) | – | human hemodialysis patients, plasma | pre-treatment | reference: hemodialysis over normal subjects | total plasma concentration ratio | 11 |
| O=C(CCCN1CCC(O)(c2ccc(Cl)cc2)CC1)c1ccc(F)cc1 | – | male Hartley guinea pig, anaesthetized | intravenous infusion, 0.01 mg/kg, 10 min infusion | reference: baseline | QTc change | 1.5 ± 0.8% |
| des-acyl ghrelin (human) | – | wild-type mice, whole brain | intravenous, dose not given, 10 min, vascular space corrected | – | tissue/serum ratio | 8.67 µL/g |
| COC(=O)N[C@H](C(=O)N[C@@H](Cc1ccccc1)[C@@H](O)CN(Cc1ccc(-c2ccccn2)cc1)NC(=O)[C@@H](NC(=O)OC)C(C)(C)C)C(C)(C)C | – | Caco-2 | – | – | Papp A→B | 11 ×10⁻⁶ cm/s |
| CCCCCCCCCCCCCCCCCCOP(=O)([O-])OC1CC[N+](C)(C)CC1 | – | rhesus monkey, male, plasma | oral, 7 mg/kg, single dose | – | AUC(0-inf) | 1430 µg·h/mL |
| CCCC[C@@H]1NC(=O)[C@@H](NC(=O)[C@H](CCC(=O)O)NC(=O)CNC(=O)CN2CCN(CC(=O)O)CCN(CC(=O)O)CCN(CC(=O)O)CC2)CCCCNC(=O)C[C@@H](C(N)=O)NC(=O)[C@H](C(C)C)NC(=O)[C@@H]2CCCN2C(=O)[C@H](CCCNC(=N)N)NC(=O)CNC(=O)[C@H](Cc2c[nH]c3ccccc23)NC(=O)[C@H](CCCNC(=N)N)NC(=O)[C@@H](Cc2ccccc2)NC(=O)[C@H](Cc2c[nH]cn2)NC(=O)[C@H](CCC(=O)O)NC1=O [indium-111 labelled] | – | C57 mice, B16/F10 lung metastatic melanoma, kidneys | intravenous, 0.037 MBq, 2 h | – | tissue uptake | 16.2 ± 0.62 %ID/g |
| Clc1ccccc1C(c1ccccc1)(c1ccccc1)n1ccnc1 | shake-flask | Captex 355 | 37 °C | – | thermodynamic solubility | 18.8 ± 0.59 mg/g |
| CCCC[C@H](NC(C)=O)C(=O)N[C@H]1CCC(=O)NC[C@@H](C(=O)N[C@@H](Cc2c[nH]c3ccccc23)C(N)=O)NC(=O)[C@H](CCCNC(=N)N)NC(=O)[C@@H](Cc2ccccc2)NC(=O)[C@H](Cc2c[nH]cn2)NC1=O | – | healthy human, both sexes, plasma | subcutaneous, 3.0 mg once daily, day 1, median | – | Vd/F | 261 L |
| CNCc1ccc(-c2[nH]c3cc(F)cc4c3c2CCNC4=O)cc1 | – | human, fed high-fat meal, plasma | oral, 600 mg, 24 h, single dose, arithmetic mean | – | AUC(0-t) | 13.9 µg·h/mL |
| Cc1ccc(N2CCN(CC(O)COc3ccccc3C(=O)CCc3ccccc3)CC2)cc1 (stereo not shown) | metabolic stability | female mouse, liver microsomes | 20 µM, pH 7.4 | – | scaled CLint | 30.4 mL/min/kg |
| NC(=O)CN[C@@H]1CCCNC1 | capillary electrophoresis-MS | water | – | – | pKa2 | 8.46 |
| CC[C@H](C)[C@@H]1NC(=O)[C@@H]2CSSC[C@H](NC(=O)[C@H](C(C)C)NC(=O)[C@H]([C@@H](C)CC)NC(=O)[C@H](C(C)C)NC(=O)[C@@H](NC(=O)[C@H](CCCCN)NC(=O)[C@@H](N)CCCNC(=N)N)CSSC[C@@H](C(=O)N[C@@H](CCCNC(=N)N)C(=O)O)NC(=O)[C@H](CC(C)C)NC(=O)[C@H]([C@@H](C)CC)NC1=O)C(=O)N[C@@H](CCCNC(=N)N)C(=O)N[C@@H](CCCNC(=N)N)C(=O)N[C@@H](CC(N)=O)C(=O)N[C@@H](CCCNC(=N)N)C(=O)N[C@@H](CCCNC(=N)N)C(=O)N2 | LC/MS | PBS | 0.1 mg/mL | reference: LC peak area | two-disulfide form | 92% |
| C[C@@H](N)c1cc(Cl)ccc1Cn1c(=S)[nH]c(=O)c2[nH]ccc21 | – | healthy Chinese volunteers, plasma | oral, 5 mg once daily, day 10, geometric mean | – | AUC(tau) | 0.608 µM·h |
| C[C@H](Oc1ccc(-c2nc(-c3ccc4[nH]cnc4c3)no2)cc1C(F)(F)F)C(F)(F)F | – | cynomolgus monkey, aneurysm model, plasma | 0.1 mg/kg once daily, 1 h post-dose, 2 weeks dosing | – | plasma concentration | 11 ± 3.5 nM |
| CC(C)NC[C@@H](C(=O)N1CCN(c2ncnc3c2[C@H](C)C[C@H]3O)CC1)c1ccc(Cl)cc1 | – | human, Healthy hepatic function, plasma | oral, 100 mg single dose, NCI classification, geometric mean | – | AUC(0-72 h) | 0.263 µg·h/mL |
| O=C(c1ccc(OCCN2CCCCC2)cc1)c1c(-c2ccc(O)cc2)sc2cc(O)ccc12 | – | healthy humans, plasma | oral, 60 mg, together with: acute green tea | – | AUC(0-96 h) | 0.0085 µM·h |

Excerpt of the above:
| Substance | test | system | setting | how to read | measurement | value |
| --- | --- | --- | --- | --- | --- | --- |
| CSc1cc(C)nc(SC)c1NC(=O)CN1CCN(CCSc2nc3ccccc3[nH]2)CC1 | – | mouse Crl:CD1 (ICR) female, cerebrum | intranasal repeated, 32.4 µg in 0.01 N HCl, 60 min | – | concentration | 0.8 ng/g |
